Published values collected from several papers.
Each line is one published result; not all experiments were run side by side. Several values in a cell are separate wells, animals, samples, runs or records. ± gives the spread as reported.

| SMILES | cell line | assay | setting | scale | quantity | value |
| --- | --- | --- | --- | --- | --- | --- |
| COc1ccccc1-c1ccncc1C(=O)Nc1nnc(OCc2ccc(Cl)cc2)s1 | MDA-MB-436 BRCA1-mutant | – | 6 µM | – | colony count | 7 and 11 and 6 and 12 and 13 |
| CN1CCCNC(=O)c2cccc(c2)C(=O)NCCCN(C)CCCNc2cccc3c2C(=O)c2cccc(c2C3=O)NCCC1 | SAS | RNA-Seq, refers to: MELK mRNA | 1 µM, 6 h | relative to: untreated cells | log2 fold change | -0.51 |
| COc1cc(N2CCN(C(=O)CN)CC2)ccc1Nc1ncc(Cl)c(Nc2ccccc2P(C)(C)=O)n1 | NCI-H3122 | CCK-8 | 2.5 nM, 48 h | – | viability | 95% |
| Cc1ccc2c(Cn3ccnc3)cc(=O)oc2c1C | COS-7 (untransfected) | – | 500 µM, unit not given | relative to: 3 µM ionomycin | calcium mobilisation signal | 0.91 ± 1.89 |
| N#C[C@@H]1CCCN1C(=O)CNC(=O)c1ccnc2ccc(OCCCN3CCN(C(=O)CCc4ccc5c(c4)CN4CCN(Cc6cc(CCC(=O)O)ccc6O)CC(=O)[O][Al-]([18F])([O]C(=O)C4)[O]5)CC3)cc12 (stereo partly shown) | HT1080 cells expressing human FAP | – | 30 min, 37 °C | – | internalized fraction | 74.3 ± 1.9% |
| Cc1ncsc1-c1ccc(C(C)NC(=O)C2CC(O)CN2C(=O)C(NC(=O)CCCCCCCCCCN2CCCC(Nc3ncc(Cl)c(Nc4ccccc4S(=O)(=O)C(C)C)n3)C2)C(C)(C)C)cc1 (stereo not shown) | 22Rv1 | RNA-seq, refers to: SURF6 mRNA | concentration not given | relative to: DMSO | log2 fold change | -1.02 |
| CC(=O)N[C@@H](Cc1ccc(I)cc1)C(=O)N[C@@H](CCC(=O)O)C(=O)N[C@H](C(=O)N[C@@H](CC(=O)O)C(=O)COC(=O)c1c(C)cccc1C)[C@@H](C)O | THP-1 cells, LPS-primed | pyroptosis, LDH release | 25 µM, LPS 1 µg/mL, 4 h, with: nigericin 5 µM, 2 h | – | cell lysis | 64.3% |
| O=C(Nc1nnc2c1c(-c1ccc(Cl)cc1)nc1sc(=Cc3ccco3)c(=O)n12)c1ccccc1 (mixture of isomers) | OVCAR-8 | SRB | 10 µM, NCI60 single-dose screen | relative to: untreated | cell growth | 44.4% |
| COc1ccc(CNC[C@](O)(COCc2ccccc2)[C@@H]2CC[C@@H](C)C[C@H]2OCc2ccccc2)cc1 | HeLa | cell growth or viability, MTT | 10 µM, 72 h | – | inhibition | 97.7% |
| Cn1ncc2cc(-c3cncc(Cl)c3N3CCC4(CCNC4=O)CC3)ccc21 | LS174T | gene expression, microarray, refers to: PDE4D mRNA | concentration not given, 24 h | relative to: untreated cells | log2 fold change | 2.33 |
| C[N+](C)(CCOCCOCCOCCNC(=S)Nc1ccc(C[C@H]2CN(CC(=O)[O-])CCN(CC(=O)[O-])CCN2CC(=O)[O-])cc1)C[c-]1cccc1.[64Cu+2].[Fe+2].c1cc[cH-]c1 | BxPC-3 | – | 6 h, 37 °C | – | radioligand remaining in medium | 99.7% |
| CCC(=CCc1c(O)cc2c(c1O)C(=O)CC(c1cccc(O)c1)O2)CC (stereo not shown) | HeLa | cell growth or viability, MTT | 100 µM, 48 h | – | inhibition | 96.6% |
| O=S(=O)(N[C@H]1CCO[C@@H](C2c3ccc(F)cc3CCc3cc(F)ccc32)C1)c1ccc(OC(F)(F)F)cc1 | D425 | immunoblot | concentration not given, 24 h | – | total PARP level | decreased |
| C=CCc1c(O)cc2c(c1O)C(=O)CC(c1ccc(O)cc1)O2 (stereo not shown) | HeLa | cell growth or viability, MTT | 100 µM, 48 h | – | inhibition | 31.4% |
| CCN(CC)CC(=O)Nc1cccc(-n2cc(-c3ccc4ccc(-c5cn(-c6cccc(NC(=O)CN(CC)CC)c6)nn5)cc4c3)nn2)c1 | RCC4 | PCR angiogenesis array, refers to: ERBB2 | 5 x IC50, 4 h, normoxia | relative to: untreated | fold regulation | -1.26 |
| CC12CCCC(NS(=O)(=O)c3ccc(O)c(N)c3)(C1)C1CC(C)(C)C1CC2 (stereo not shown) | HT-29 | cell growth or viability, CCK-8 | 10 µM | – | inhibition | < 50% |
| O=C(C[Se]C(=O)c1ccccc1Nc1ccccc1)Nc1cccc(C(F)(F)F)c1 | NCI60 leukemia subpanel | cell growth | 10 µM, 48 h, one-dose | – | mean growth percent | -81.6% |
| CC12CCCC(n3cc(C(=O)N4CCC(N)CC4)nn3)(C1)C1CC(C)(C)C1CC2 (stereo not shown) | HT-29 | cell growth or viability, CCK-8 | 10 µM | – | inhibition | 76.6% |
| CNS(=O)(=O)Nc1nccc(Cc2c(C)c3ccc(Oc4ncccc4F)cc3oc2=O)c1F | Kasumi-2 | cell viability, CellTiter-Glo | 7 days | – | IC50 | 1.95 nM |

Some of these lines once more:
| SMILES | cell line | assay | setting | scale | quantity | value |
| --- | --- | --- | --- | --- | --- | --- |
| COc1cc(N2CCN(C(=O)CN)CC2)ccc1Nc1ncc(Cl)c(Nc2ccccc2P(C)(C)=O)n1 | NCI-H3122 | CCK-8 | 2.5 nM, 48 h | – | viability | 95% |
| O=C(C[Se]C(=O)c1ccccc1Nc1ccccc1)Nc1cccc(C(F)(F)F)c1 | NCI60 leukemia subpanel | cell growth | 10 µM, 48 h, one-dose | – | mean growth percent | -81.6% |
| CCC(=CCc1c(O)cc2c(c1O)C(=O)CC(c1cccc(O)c1)O2)CC (stereo not shown) | HeLa | cell growth or viability, MTT | 100 µM, 48 h | – | inhibition | 96.6% |
